Measured values of several laboratories.
Each numbered part is a random draw from the data of one study; scales do not carry over between parts.

Block 1 — method: protein-binding microarray; form: double-stranded DNA, one strand shown; medium: in vitro; tested at: 2200 nM top; notes: 60-bp whole probe; with: salmon DNA 0.4 mg/ml; relative to: random background probes; direction: higher = stronger binding
Target: Interferon regulatory factor 7, full length, phosphomimetic (IRF7, Homo sapiens, UniProt Q92985, residues 1-503, S471D/S472D/S475D/S476D/S477D/S483D/S484D/S487D)
Sequence of UniProt Q92985 (whole entry, unmodified, looked up): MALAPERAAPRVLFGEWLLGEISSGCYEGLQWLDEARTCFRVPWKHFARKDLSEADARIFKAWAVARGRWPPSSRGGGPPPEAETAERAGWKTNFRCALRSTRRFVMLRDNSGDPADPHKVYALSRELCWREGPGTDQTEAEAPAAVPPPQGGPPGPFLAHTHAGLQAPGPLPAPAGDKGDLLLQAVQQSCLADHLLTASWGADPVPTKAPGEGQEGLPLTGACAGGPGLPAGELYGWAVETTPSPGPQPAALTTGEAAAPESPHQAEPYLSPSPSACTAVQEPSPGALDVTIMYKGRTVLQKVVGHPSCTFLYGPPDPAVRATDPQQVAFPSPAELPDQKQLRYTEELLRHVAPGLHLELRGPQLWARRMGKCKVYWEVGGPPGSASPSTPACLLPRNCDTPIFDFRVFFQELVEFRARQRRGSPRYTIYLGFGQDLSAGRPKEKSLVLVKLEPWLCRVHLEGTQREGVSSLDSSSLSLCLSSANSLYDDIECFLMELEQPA
Strand | fitted relative affinity [z-score]
GCCTAGCACGACGGTCTCGGACTGGGAACGTGCTAGGTCTTGATTCGCTTGACGCTGCTG | -0.512
GCCTAGCACGACGGTCTCCTTATCCTGAGGTGCTAGGTCTTGATTCGCTTGACGCTGCTG | 0.447
GCCTAGCACTTAGATATAAGACTGGATTAGTGCTAGGTCTTGATTCGCTTGACGCTGCTG | -0.746
GCCTAGCACTCAGCTGTCCTTTGCAAACTGTGCTAGGTCTTGATTCGCTTGACGCTGCTG | 0.782

Block 2 — method: RNA Bind-n-Seq; form: RNA; medium: in vitro; tested at: 365 nM; relative to: no-protein control; direction: higher = stronger binding
Target: RNA binding protein fox-1 homolog 2, RRM domain, GST-SBP tag (RBFOX2, Homo sapiens, UniProt O43251-10, residues 100-194)
Notes: natural RNA segment, single round, ends assumed
Residues (chain): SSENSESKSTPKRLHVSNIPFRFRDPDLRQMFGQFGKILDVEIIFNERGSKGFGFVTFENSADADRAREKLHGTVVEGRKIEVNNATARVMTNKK
Strand | RBNS enrichment (R)
GGGAGUUCUACAGUCCGACGAUCGUUAGGCUGUUCUCCUGAGCUGCAGGUGCCCAGGUCUGACUCUCCUUCUCUGCUUAUCCCCAGGCAGCAGAUGCUGAGCUUCCCCCACCUCCUGCAGACAGUGCUGCACAUGGAAUUCUCGGGUGCCAA | 0.571
GGGAGUUCUACAGUCCGACGAUCGUUUCUUUUUGUCUCCCCCACUAUUCAAGGACUCUCCUCUUUACCAAGAAGCACAGAAUUCUGCUGGGCCUUUGCUUGUUUAUUUUGCUUCCCGACUCUUCUCUUGGGGGUGGAAUUCUCGGGUGCCAA | 0.818
GGGAGUUCUACAGUCCGACGAUCUGCAAGACCCCGGGUCCUUGCAGCAGAGCUUCUCAUGGGUGGCUUGCUGGGGCCGGGCCGAGGACUCCUCAGAGGCGUUUCCUGCAGAGCCAUUAUUUUGACGCCUUUUUUGGAAUUCUCGGGUGCCAA | 0.472
GGGAGUUCUACAGUCCGACGAUCUAGUAGAUGUUCUACUUUGUUCUGCUGUUCUCUAGAAAGAAUAUUUGGUUUUCCUGUAUAGGAAUGAGAUUAAUUCCUUUCCAGGUAUUUUAUAAUUCUGGGAAGCAAAAUGGAAUUCUCGGGUGCCAA | 0.291

Block 3 — method: protein binding microarray; form: double-stranded DNA, one strand shown; medium: in vitro; tested at: not given; relative to: not given; direction: higher = stronger binding
Target: Histone acetyltransferase KAT6A, both winged helices, GST fusion (KAT6A, Homo sapiens, UniProt Q92794, residues 1-181)
Notes: 8-mer, flanks averaged, mean of 2 arrays, mostly near background
Residues (chain): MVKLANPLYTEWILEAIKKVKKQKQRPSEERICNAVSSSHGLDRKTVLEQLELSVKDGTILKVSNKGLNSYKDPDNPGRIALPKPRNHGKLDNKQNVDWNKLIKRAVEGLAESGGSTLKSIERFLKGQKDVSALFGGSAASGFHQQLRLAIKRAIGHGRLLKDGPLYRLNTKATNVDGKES
Strand | E-score
GATTTCGC | 0.128
AATTATGG | 0.0184
ACGGCACC | 0.261
AATGCGCG | 0.363

Further values, each from its own experiment
Substance | target | test | test system | conditions | scale | endpoint | value
PhoQ, residues 284 288 289 292 302 303 TAVSDG | PhoP, residues 12 14 15 18 19 NNFVT (Escherichia coli, UniProt P23836) | Sort-seq, refers to: YFP reporter | E. coli | PhoQ-PhoP variant library, with: 10 µM Mg2+ | relative to: high Mg2+ state, higher = stronger signaling | fold induction | 3.74

Excerpt of the above (block 1):
Strand | fitted relative affinity [z-score]
GCCTAGCACTTAGATATAAGACTGGATTAGTGCTAGGTCTTGATTCGCTTGACGCTGCTG | -0.746
